Published values collected from several papers.
Protocols differ between the studies behind these lines. Values joined by “and” are separate records of one study, mostly repeats; a detail may differ. ± marks the error that the study gave.

C[C@@H](O)[C@H]1C(=O)N2C(C(=O)O)=C(S[C@@H]3CN[C@H](C(=O)N(C)C)C3)[C@H](C)[C@H]12 — plasma concentration (BALB/c mouse, male, plasma; intraperitoneal, dose not given, 2 h, together with: combination treatment): 1540 ng/mL
CCN(CC)CCOC(=O)c1ccc(N)cc1 — remaining compound (LC-MS; BALB/c nude mouse, plasma; 2 µM, 0.5 h): 0.2%
C=C[C@@](C)(/C=C/c1ccc(O)cc1)CCC=C(C)C — accuracy (post-procedure stability; rat plasma; 200 ng/mL, 3 h, room temperature): 119%
CC(C)[C@@H](CS(=O)(=O)C(C)C)N1C(=O)[C@@](C)(CC(=O)O)C[C@H](c2cccc(Cl)c2)[C@H]1c1ccc(Cl)cc1 — brain distribution advantage (FVB mouse, Abcb1a/b knockout, brain; intravenous, 20 mg/kg, unit not given; reference: knockout Kp over wild-type Kp): 33.5
CC[C@@H]1CN(C(=O)NCC(F)(F)F)C[C@@H]1c1cnc2cnc3[nH]ccc3n12 — ER dose fraction absorbed zero-order (population PK modelling; human; oral, extended-release formulation, outliers re-estimated): 72.9%
COc1ccc2c(c1)CN(C(=O)CCN1CCC(Cc3ccccc3)CC1)CC[S@@+]2[O-] — unbound plasma concentration (anesthetized male beagle dogs, plasma; intravenous, 2 mg/kg total over 30 min, end of infusion): 470 nM
Cc1cc(-c2nccc3c2ccn3CC(=O)Nc2ccc(-c3cnccn3)cn2)ccn1 — subjects with nasal discomfort (human; 15 mg once daily, multiple ascending dose): 0%
CCCS(=O)(=O)Nc1ccc(F)c(C(=O)c2c[nH]c3ncc(-c4ccc(Cl)cc4)cc23)c1F — Km of saturable absorption (one-compartment model; tumour-bearing xenograft mouse, plasma; oral): 19900 µg/kg
O=C(c1nc2n(n1)[C@H](c1ccccc1)C[C@@H]2F)C1CC1 — renal clearance (human; 25 mg single dose): 0.113 to 0.382 mL/min
CC(=O)N(C)C1CCN(c2cc(F)cc(NC(=O)c3cc4c(F)ccc(C)c4[nH]3)c2)C1 (stereo not drawn) — fraction absorbed (CD1 mouse; oral, 50 mg/kg): < 0.01
O=C(COc1ccc(Cl)cc1)NC12CC(c3nnc([C@H]4C[C@@H](OC(F)(F)F)C4)o3)(C1)C2 — adverse event incidence (refers to: Fatigue; human; oral, 145 mg once daily, 14 days): 71.4%
C[Si](C)(C)O[Si](C)(C)O[Si](C)(C)C — entropy of phase change (1-octanol/water; concentration not given): 0.133 kJ/(mol·K)
CNC(=O)c1ccc(-c2cnc3ncc(Cc4ccc5ncccc5c4)n3n2)cc1F — abdominal distension incidence (cancer patients; oral, dose not given, all grades dose escalation): 13%
CNCCOC12CC3(C)CC(C)(CC(Cn4ncc(-c5ccc(N6CCc7cccc(C(=O)Nc8nc9ccccc9s8)c7C6)nc5C(=O)O)c4C)(C3)C1)C2 — cardiac output change (anaesthetised male beagle dogs; intravenous bolus, 0.03 mg/kg, 60 min; reference: baseline): -20%
O=C(N/N=C/c1ccccc1O)c1ccncc1 — stability (rat plasma; 23 µM, 7 days, -80 °C, long-term storage): 96.9%
CN1C(=O)c2ccccc2[S@+]([O-])c2ccc(C(=O)NCCc3cccs3)cc21 — brain concentration (C57BL/6 mouse, male, brain; intraperitoneal, 30 mg/kg, single dose, 12 h, quantification limit 1 ng/mL): not detected
N#Cc1ccc2c(c1)[C@H]1CCCN(C(=O)c3ccc4[nH]cnc4c3)[C@H]1C2 — SHBG (human females; 360 mg, end of trial): 36 nmol/L
c1ccc2c(c1)c1cccc3ccc4cccc2c4c31 — literature range of log K (PDMS-water partitioning; PAH compilation): 5.09 to 5.91 log units
CCN1/C(=C/C(C)=O)Sc2ccc(F)cc21 — heart rate change (cynomolgus monkey; oral, 100 mg/kg, 4 h post-dose; reference: pre-dose): 103 ± 26.7%
Oc1ccc(/C=C/c2cc(O)cc(O)c2)cc1 — HDL cholesterol (rat, azoxymethane-injected, blood at sacrifice; 10 mg/kg): 23 mg/dL and 26 mg/dL and 25 mg/dL
Cc1nc2cccc(OCC(C)(C)C(=O)NC(C)C)c2c(N)c1C(=O)O — Cmax ratio female over male (Sprague-Dawley rat, plasma; oral, 100 mg/kg, day 1; reference: female over male): 1.82 ± 1.23
Cc1ccc([C@@H]2O[C@H](CO)[C@@H](O)[C@H](O)[C@H]2O)cc1Cc1ccc(-c2ccc(F)cc2)s1 — urinary magnesium excretion change (Japanese type 2 diabetes patients; 400 mg, day 5, 24 h urine collection; reference: baseline): -6.59 mg
O=C(N[C@H](Cc1c[nH]c2ccccc12)C(=O)Nc1ccncc1)c1ccc(-c2ccc(F)c(Cl)c2)cc1F — concentration (Swiss Webster mouse, female, muscle; oral, 50 mg/kg, 2 h, 20% Kolliphor vehicle): 3400 nM
Cc1ccc(Sc2ccccc2N2CCNCC2)c(C)c1 — participants with TEAE (refers to: blood uric acid increased; healthy adult men; oral, 20 mg daily, 12 days): 0%
Cc1c(-c2ccc(N3CCc4cccc(C(=O)Nc5nc6ccccc6s5)c4C3)nc2C(=O)O)cnn1CC12CC3(C)CC(C)(C1)CC(OCCNCC[C@H](O)CO)(C3)C2 — cardiac output change (anaesthetised male beagle dogs; intravenous infusion, 0.3 mg/kg/min, 15 min; reference: vehicle): -14%
Cc1c(O)c(=O)ccn1CCO.Cl — partition coefficient (shake-flask, refers to: iron(III) complex; 1-octanol/Tris buffer; pH 7.4, ligand:iron 10:1): 0.003 ± 0.0005
C[C@@H]1COCCN1c1cc(C2([S@](C)(=N)=O)CC2)nc(-c2cc[nH]c3nccc2-3)n1 — Pruritus incidence (Japanese advanced solid tumour patients; oral, 240 mg twice daily, any grade): 16.7%
Cc1cc(NC2CCN(C(=O)OC3CCN(C(=O)/C=C/CN(C)C)C3)CC2)n2ncc(C(C)C)c2n1 (stereo not drawn) — patients with adverse event (Phase I dose escalation CTCAE v4.0, refers to: Flatulence; patients with advanced solid tumours; dose not given, TIW dosing any grade): 0%
C[C@@H](N)C1CCN(S(=O)(=O)c2cccc3cnccc23)CC1 — participants with orthostatic hypotension (healthy volunteers; 150 mg, fasted): 0%
CCOC(=O)[C@H](CCc1ccccc1)N[C@@H](C)C(=O)N1[C@H](C(=O)O)C[C@H]2CCCC[C@@H]21 — autosampler stability (processed human plasma; 1000 pg/mL, 48 h, 4 °C; reference: nominal): 103 ± 7.8%
O=C(Nc1nc2cccc(-c3ccc(CN4CCS(=O)(=O)CC4)cc3)n2n1)C1CC1 — treatment-emergent adverse events (refers to: cystitis; human rheumatoid arthritis patients; oral, 75 mg once daily, 4 weeks, regardless of relatedness): 0%
OCC1=C[C@@H](O)[C@@H]2C=CO[C@@H](O[C@@H]3O[C@H](CO)[C@@H](O)[C@H](O)[C@H]3O)[C@H]12 — accuracy (post-procedure stability; rat plasma; 200 ng/mL, 1 h, room temperature): 94%
c1ccc(CN2CCCN3CCN(Cc4ccccc4)CCCN(CC2)Cc2cccc(n2)C3)cc1 — copper(II) complex dissociation half-life (5 M HCl; 90 °C): 20.3 h
Cc1cccc(CNC(=O)c2cn(CCNC(=O)c3ccccc3Sc3c([N+](=O)[O-])ncn3C)c3cc4c(cc3c2=O)OCO4)n1 — remaining compound (LC-MS/MS; CD-1 mouse, whole blood; 1 µM, 1.5 h): 83.9%
CC[C@H](C)[C@H](NC(=O)CN)C(=O)N[C@@H](C)C(=O)N[C@@H](CCCCN)C(=O)N[C@@H](Cc1ccccc1)C(=O)N[C@H](C(=O)N[C@@H](CCCCN)C(=O)N[C@@H](CCCCN)C(=O)N[C@H](C(=O)N[C@@H](C)C(=O)N[C@@H](CCCCN)C(=O)N[C@@H](C)C(=O)N[C@@H](CC(C)C)C(=O)N[C@@H](CCCNC(=N)N)C(N)=O)[C@@H](C)CC)[C@@H](C)CC — helix content (circular dichroism; 10 mM SDS; 100 µM): 29%
Cl.[2H]C([2H])([2H])CC(=O)c1cnc(NC(=O)C2CC2)cc1Nc1cccc(-c2ncn(C([2H])([2H])[2H])n2)c1OC — Vz/F (geometric mean; human; oral, 10 mg once daily, day 1, fasted, liquid, multiple dose): 136 L
FC(F)(F)c1ccc(CNc2ccc(Cc3c[nH]c4ncc(Cl)cc34)cn2)cn1 — adverse event incidence (refers to: Vomiting; patients with advanced solid tumours; oral, dose not given, grade 1 and 2, possibly related to drug): 22%
NC1(C(=O)N[C@@H](CCO)c2ccc(Cl)cc2)CCN(c2nc[nH]c3nccc2-3)CC1 — incidence of Hyper-glycaemia (metastatic CRPC patients; 480 mg b.i.d., any grade, treatment-related, together with: enzalutamide 160 mg daily): 60%
CNc1ccc(-c2nc3ccc(O)cc3s2)cc1 [carbon-11 labelled] — SUV (ex vivo biodistribution; B6SJL mouse, normal, feces; intravenous, 30 min): 0.716 ± 0.316

For quick reference, copied from above:
Cc1ccc(Sc2ccccc2N2CCNCC2)c(C)c1 — participants with TEAE (refers to: blood uric acid increased; healthy adult men; oral, 20 mg daily, 12 days): 0%
O=C(N[C@H](Cc1c[nH]c2ccccc12)C(=O)Nc1ccncc1)c1ccc(-c2ccc(F)c(Cl)c2)cc1F — concentration (Swiss Webster mouse, female, muscle; oral, 50 mg/kg, 2 h, 20% Kolliphor vehicle): 3400 nM
C[C@@H]1COCCN1c1cc(C2([S@](C)(=N)=O)CC2)nc(-c2cc[nH]c3nccc2-3)n1 — Pruritus incidence (Japanese advanced solid tumour patients; oral, 240 mg twice daily, any grade): 16.7%
